Measurements pooled from the literature.
Compare with care: the assays were run in different laboratories. ± gives the spread as reported.

SMILES | assay | test system | setting | fraction unbound
Cn1c(=O)ccc2ccc(F)c(CCNC[C@H]3CN(c4ncc5c(n4)NC(=O)CO5)C(=O)O3)c21 | equilibrium dialysis | human plasma, 10% | 10 µM, 18 h | 0.086
COc1ccc2c(c1)[C@]13CCCC[C@@H]1[C@H](C2)N(C)CC3 | rapid equilibrium dialysis | rat plasma | 2 µM, 6 h, pH 7.4 | 0.39
CNC(C)Cc1ccc2c(c1)OCO2 (centres unmarked) | rapid equilibrium dialysis | human plasma | 25 ng/mL | 0.832
O=C1NC(=O)C(Cc2ccccc2)S1 (centres unmarked) |  | human plasma |  | 0.03
NC(=O)N1c2ccccc2C=Cc2ccccc21 | equilibrium dialysis | human plasma | 5 µM, 6 h | 0.31
Cc1sc2c(c1C)C(c1ccc(Cl)cc1)=N[C@@H](CC(=O)Nc1ccc(O)cc1)c1nnc(C)n1-2 | equilibrium dialysis | mouse plasma | 10 µM, 4 h, pH 7.4 | 0.0199 ± 0.0034
CCCC[C@@H]1NC(=O)[C@H](Cc2ccc(O)cc2)NC(=O)[C@@H]2CCCN2C(=O)[C@H](CC(=O)O)NC(=O)[C@H](C)NC(=O)[C@H](Cc2ccccc2)NC(=O)[C@@H]2CSCCC(=O)N3CN(CN(C3)C(=O)CCSC[C@@H](C(=O)N[C@@H](C)C(N)=O)NC1=O)C(=O)CCSC[C@H](NC(=O)[C@H](C)NC(C)=O)C(=O)N[C@@H]([C@@H](C)CC)C(=O)N[C@@H](CCC(=O)O)C(=O)N[C@@H](CCC(=O)O)C(=O)N[C@H](CCCCNC(=O)CCc1cn(CCOCCOCCOCCN(CCOCCOCCOCCC(=O)N[C@H]3CSCCC(=O)N4CN5CN(C4)C(=O)CCSC[C@H](NC(=O)[C@@H](CC(=O)O)NC(=O)[C@H](Cc4cccc6ccccc46)NC(=O)[C@@H]4CCCN4C3=O)C(=O)N[C@@H](CCSC)C(=O)N[C@@H](CCCCNC(=N)N)C(=O)N[C@@H](CC(=O)O)C(=O)N[C@@H](Cc3c[nH]c4ccccc34)C(=O)N[C@@H](CO)C(=O)N[C@@H]([C@@H](C)O)C(=O)N3CCC[C@H]3C(=O)N3C[C@H](O)C[C@H]3C(=O)N[C@@H](Cc3c[nH]c4ccccc34)C(=O)N[C@H](C(N)=O)CSCCC5=O)CCOCCOCCOCCn3cc(CCC(=O)NCCCC[C@H]4NC(=O)[C@H](CCC(=O)O)NC(=O)[C@H](CCC(=O)O)NC(=O)[C@H]([C@@H](C)CC)NC(=O)[C@@H](NC(=O)[C@H](C)NC(C)=O)CSCCC(=O)N5CN6CN(C5)C(=O)CCSC[C@H](NC(=O)[C@H](Cc5ccc(O)cc5)NC(=O)[C@H](CCC(N)=O)NC4=O)C(=O)N[C@@H](Cc4ccccc4)C(=O)N[C@@H](C)C(=O)N[C@@H](CC(=O)O)C(=O)N4CCC[C@H]4C(=O)N[C@@H](Cc4ccc(O)cc4)C(=O)N[C@@H](CCCC)C(=O)N[C@H](C(=O)N[C@@H](C)C(N)=O)CSCCC6=O)nn3)nn1)C(=O)N[C@@H](CCC(N)=O)C(=O)N[C@@H](Cc1ccc(O)cc1)C(=O)N2 | ultracentrifugation | rat plasma |  | 0.2
Cn1c(=O)cnc2ccc(F)c(CCNC[C@H]3CN(c4cnc5c(n4)NC(=O)CO5)C(=O)O3)c21 | equilibrium dialysis | human plasma, 10% | 10 µM, 18 h | 0.038
CC(C)(C)NC(=O)[C@@H]1C[C@@H]2CCCC[C@@H]2CN1C[C@@H](O)[C@H](Cc1ccccc1)NC(=O)[C@H](CC(N)=O)NC(=O)c1ccc2ccccc2n1 |  | human, maternal placental perfusate | pH 7.4 | 0.06
COc1ccc2cc1Oc1ccc(cc1)C[C@H]1c3cc(c(OC)cc3CCN1C)Oc1c(OC)c(OC)cc3c1[C@H](C2)N(C)CC3 |  | plasma |  | 0.0573
O=c1[nH]c(CCc2ccccc2)no1 |  | human plasma |  | 0.01
C=CC(=O)N[C@H]1C=C(C)c2c(-c3cnc4ccccc4c3)c3c(N)ncnc3n2C1 |  | rat brain slices |  | 0.119 ± 0.03
O=c1[nH]c(CCc2ccccc2)ns1 |  | human plasma |  | 0.01
N=C(CC(O)c1cc2c(F)cc(F)cc2c2cc(C(F)(F)F)ccc12)Nc1ccc(Br)cc1 (centres unmarked) | equilibrium dialysis | human plasma | 100 ng/mL, 24 h, 0.9% saline dilution | 0.001
O=[PH](O)CCc1ccccc1 |  | human plasma |  | 0.09
CN[C@@H]1C[C@H]2O[C@@](C)([C@@H]1OC)n1c3ccccc3c3c4c(c5c6ccccc6n2c5c31)C(=O)N[C@H]4O | equilibrium dialysis | human plasma |  | 0.003
c1ccc(CCc2nnn[nH]2)cc1 |  | human plasma |  | 0.01
O=c1ccc2ncc(=O)n3c2n1C[C@H]3CN1CCC(NCc2cc3c(cn2)OCCC3)CC1 |  | rat plasma |  | 0.7
CN1C(=O)Cc2ccc(F)c(CCNCC[C@H]3CN(c4ccc5c(n4)NC(=O)CO5)C(=O)O3)c21 | equilibrium dialysis | human plasma, 10% | 10 µM, 18 h | 0.08
O=C1C=C(O)CC1Cc1ccccc1 (centres unmarked) |  | human plasma |  | 0.08

For quick reference, copied from above:
SMILES | assay | test system | setting | fraction unbound
CCCC[C@@H]1NC(=O)[C@H](Cc2ccc(O)cc2)NC(=O)[C@@H]2CCCN2C(=O)[C@H](CC(=O)O)NC(=O)[C@H](C)NC(=O)[C@H](Cc2ccccc2)NC(=O)[C@@H]2CSCCC(=O)N3CN(CN(C3)C(=O)CCSC[C@@H](C(=O)N[C@@H](C)C(N)=O)NC1=O)C(=O)CCSC[C@H](NC(=O)[C@H](C)NC(C)=O)C(=O)N[C@@H]([C@@H](C)CC)C(=O)N[C@@H](CCC(=O)O)C(=O)N[C@@H](CCC(=O)O)C(=O)N[C@H](CCCCNC(=O)CCc1cn(CCOCCOCCOCCN(CCOCCOCCOCCC(=O)N[C@H]3CSCCC(=O)N4CN5CN(C4)C(=O)CCSC[C@H](NC(=O)[C@@H](CC(=O)O)NC(=O)[C@H](Cc4cccc6ccccc46)NC(=O)[C@@H]4CCCN4C3=O)C(=O)N[C@@H](CCSC)C(=O)N[C@@H](CCCCNC(=N)N)C(=O)N[C@@H](CC(=O)O)C(=O)N[C@@H](Cc3c[nH]c4ccccc34)C(=O)N[C@@H](CO)C(=O)N[C@@H]([C@@H](C)O)C(=O)N3CCC[C@H]3C(=O)N3C[C@H](O)C[C@H]3C(=O)N[C@@H](Cc3c[nH]c4ccccc34)C(=O)N[C@H](C(N)=O)CSCCC5=O)CCOCCOCCOCCn3cc(CCC(=O)NCCCC[C@H]4NC(=O)[C@H](CCC(=O)O)NC(=O)[C@H](CCC(=O)O)NC(=O)[C@H]([C@@H](C)CC)NC(=O)[C@@H](NC(=O)[C@H](C)NC(C)=O)CSCCC(=O)N5CN6CN(C5)C(=O)CCSC[C@H](NC(=O)[C@H](Cc5ccc(O)cc5)NC(=O)[C@H](CCC(N)=O)NC4=O)C(=O)N[C@@H](Cc4ccccc4)C(=O)N[C@@H](C)C(=O)N[C@@H](CC(=O)O)C(=O)N4CCC[C@H]4C(=O)N[C@@H](Cc4ccc(O)cc4)C(=O)N[C@@H](CCCC)C(=O)N[C@H](C(=O)N[C@@H](C)C(N)=O)CSCCC6=O)nn3)nn1)C(=O)N[C@@H](CCC(N)=O)C(=O)N[C@@H](Cc1ccc(O)cc1)C(=O)N2 | ultracentrifugation | rat plasma |  | 0.2
Cn1c(=O)cnc2ccc(F)c(CCNC[C@H]3CN(c4cnc5c(n4)NC(=O)CO5)C(=O)O3)c21 | equilibrium dialysis | human plasma, 10% | 10 µM, 18 h | 0.038
